Measured values gathered from unrelated publications.
Lines come from different studies, so protocols differ. Numbers after ± are the reported error.

Under “patients with treatment-related adverse event”, `CC(C)c1cnc(-c2cc(Cl)ccc2F)cc1Nc1ccncc1C(=O)NC(CO)CO` is recorded as 0% (monotherapy, measured: nausea; human patients; oral, dose not given, grade 3, phase I A).
`COC(=O)/C=C/C(=O)c1ccc(OC)cc1` gave a recovery of 101 ± 3.47% (LC-MS/MS; rat plasma; 2.5 ng/mL, 12 h, room temperature, short-term storage).
Under “metabolite peak area”, `CCCC(CCC)NC(=O)c1ccc(O)c(O)c1` is recorded as 3.1% (LC-MS; human liver microsomes; 10 µM of parent drug, 10 min, pH 7.4, together with: NADPH; relative to: parent drug at time zero).
`CN(C)C(=O)c1ccnc(N2Cc3cn(Cc4ccc(F)cc4F)nc3C2)n1`: “effect size d” -0.15 (Morris water maze, measured: swimming velocity; wild-type mice; oral, 5 mg/kg daily, from 1 week before test, unit not given; relative to: vehicle).
With `CCCC[C@H](NC(=O)CNC(=O)CNC(=O)CN1CCN(CC(=O)O)CCN(CC(=O)O)CC1)C(=O)N[C@H]1CC(=O)NCCCC[C@@H](C(N)=O)NC(=O)[C@H](Cc2c[nH]c3ccccc23)NC(=O)[C@H](CCCNC(=N)N)NC(=O)[C@@H](Cc2ccccc2)NC(=O)[C@H](Cc2c[nH]cn2)NC1=O` [copper-64 labelled] the uptake ratio was 3.6 (female C57 mouse, B16/F1 melanoma; intravenous, 0.037 MBq, 4 h; relative to: tumour over kidneys).
`C=C(c1ccc(C(=O)O)c(F)c1)c1cc2c(cc1C)C(C)(C)C=CC2(C)C` gave a blood triglycerides of 286 ± 73.7 mg/dL (Sprague-Dawley rat, male; oral, 100 mg/kg, 12 h, sesame oil vehicle).
With `Cc1ccc(OCC(=O)N(Cc2cccs2)c2ccn[nH]2)cc1` the Tmax was 100 min (beagle dog, male, plasma; oral gavage, 30 mg/kg).
For `O=C(N[c-]1cccc1)OCc1ccc(C(=O)O)cc1.[Fe+2].c1cc[cH-]c1`, the E1/2 was -70 mV (cyclic and differential pulse voltammetry; acetonitrile; 23 °C; relative to: ferrocene/ferrocenium).
For `CN(C)c1ccc(-c2nc3ccc(OCCCCCN4CCN5CCN(CC4)CC(=O)[O][Al]([18F])[O]C(=O)C5)cc3s2)cc1`, the intestine uptake was 8.59 ± 2 % injected dose/organ (ICR mouse; intravenous, dose not given, 10 min).
Under “fluorescence quantum yield”, `Cc1ccc(-c2ccc(-c3cc4sccc4o3)cn2)nc1` is recorded as 0.5 (hexanes; together with: quinine bisulfate reference).
`CC(C)(O)c1ncc([S@](N)(=O)=NC(=O)Nc2c3c(cc4c2CCC4)CCC3)s1` gave a lag time of 0.75 h (healthy human volunteers, plasma; oral, 25 mg twice daily, fed, enteric-coated tablet).
`Oc1ccc2ccccc2c1/N=N/c1ccccc1` gave an elimination half-life of 50.2 min (Sprague-Dawley rats both sexes, whole blood; oral, 50 mg/kg).
`Cn1c(=O)oc2ccc(-c3ccc(CC(C#N)NC(=O)C4CNCCCO4)c(F)c3)cc21` (stereo not shown): “subjects with TEAE” 0% (measured: macule; human; 60 mg single dose, fasted).
For `CCCCCCCC(=O)OC[C@H](NC(=O)[C@H](CO)NC(=O)CN)C(=O)N[C@@H](Cc1ccccc1)C(=O)N[C@@H](CC(C)C)C(=O)N[C@@H](CO)C(=O)N1CCC[C@H]1C(=O)N[C@@H](CCC(=O)O)C(=O)N[C@@H](Cc1cnc[nH]1)C(=O)N[C@@H](CCC(N)=O)C(=O)N[C@@H](CCCNC(=N)N)C(=O)N[C@H](C(=O)N[C@@H](CCC(N)=O)C(=O)N[C@@H](CCC(N)=O)C(=O)N[C@@H](CCCNC(=N)N)C(=O)N[C@@H](CCCCN)C(=O)N[C@@H](CCC(=O)O)C(=O)N[C@@H](CO)C(=O)N[C@@H](CCCCN)C(=O)N[C@@H](CCCCN)C(=O)N1CCC[C@H]1C(=O)N1CCC[C@H]1C(=O)N[C@@H](C)C(=O)N[C@@H](CCCCN)C(=O)N[C@@H](CC(C)C)C(=O)N[C@@H](CCC(N)=O)C(=O)N1CCC[C@H]1C(=O)N[C@@H](CCCNC(=N)N)C(=O)O)C(C)C`, “blood pressure sBP” read 106 ± 20.5 mm Hg (beat-to-beat plethysmography; human chronic HFrEF patients; intravenous infusion, 0.1 µg/kg/min, 30 min after infusion end).
For `C=CC(=O)Nc1cc(Nc2nccc(-c3c[nH]c4ccccc34)n2)c(OC)cc1N(C)CCN(C)C`, “steady-state trough concentration” read 20 ng/mL (UHPLC-MS/MS; human, plasma; oral, 80 mg daily).
For `C[C@H](NC(=O)COC(=O)[C@H](C)NC(=O)CO)C(=O)O`, the depolymerization half-life was 1.2 min (water; pH 8, 37 °C).
`CCCC[C@H](NC(=O)[C@H](C)NC(=O)[C@H](CO)NC(=O)[C@H](CC(C)C)NC(=O)[C@H](CCCCN)NC(=O)[C@]1(C)CCCC=CCCCCCC[C@@](C)(NC(=O)[C@H](CCC(=O)O)NC(=O)[C@H](CC(C)C)NC(=O)[C@H](CO)NC(=O)[C@H](CCC(N)=O)NC(=O)[C@@H](NC(=O)[C@H](CCCC)NC(=O)[C@H](CCC(=O)O)NC(=O)[C@H](CCCNC(=N)N)NC(=O)[C@H](CCC(N)=O)NC(=O)[C@H](CC(C)C)NC(=O)[C@H](CC(C)C)NC(=O)[C@H](CS)NC(=O)[C@H](CCC(N)=O)NC(=O)[C@H](C)NC(=O)[C@H](CCCNC(=N)N)NC(C)=O)C(C)C)C(=O)N[C@@H](CCC(N)=O)C(=O)N[C@@H](CC(C)C)C(=O)N[C@@H](C(C)C)C(=O)N[C@@H](CC(C)C)C(=O)N[C@@H](CCC(=O)O)C(=O)N[C@@H](CCCCN)C(=O)N1)C(=O)N[C@@H](CCC(N)=O)C(=O)N[C@@H](C)C(=O)N[C@@H](Cc1c[nH]cn1)C(N)=O` has an alpha-helicity of 67% (circular dichroism; sodium acetate buffer; 2.5 to 10 µM, pH 3.6, 20 °C).
`C[C@@H](O)[C@H](NC(=O)[C@@H](NC(=O)[C@@H](N)CCCCN)[C@@H](C)O)C(=O)N[C@@H](CCCCN)C(=O)N[C@@H](CO)C(=O)O` — result for “amount retained in stratum corneum”: “not detected” (LC-MS/MS; hairless mouse, skin, Franz cell; 50 µg/cm^2 applied, 24 h).
`CCCC[C@H](NC(=O)CNC(=O)CNC(=O)CN1CCN(CC(=O)O)CCN(CC(=O)O)CC1)C(=O)N[C@H]1CC(=O)NCCCC[C@@H](C(N)=O)NC(=O)[C@H](Cc2c[nH]c3ccccc23)NC(=O)[C@H](CCCNC(=N)N)NC(=O)[C@@H](Cc2ccccc2)NC(=O)[C@H](Cc2c[nH]cn2)NC1=O` [gallium-67 labelled]: “tumour to tissue ratio” 15.8 (female C57 mice, B16/F1 melanoma; intravenous, 0.037 MBq, 24 h; relative to: tumour over liver).
`COc1ccc(/N=N/c2ccc(OC[C@@H](O)CNC(C)C)cc2)cc1`: “pi-pi* absorption maximum, trans” 358 nm (UV/Vis spectroscopy; Epac buffer with 0.5 % DMSO; 50 µM).
`CC(C)[C@H](NC(=O)[C@@H]1CCCN1C(=O)[C@H](CCCNC(=N)N)NC(=O)[C@H](CS)NC(=O)[C@H](Cc1c[nH]c2ccccc12)NC(=O)[C@H](CCCNC(=N)N)NC(=O)[C@@H](Cc1ccccc1)NC(=O)[C@H](Cc1c[nH]cn1)NC(=O)[C@H](CCC(=O)O)NC(=O)[C@H](CS)NC(=O)[C@H](CS)NC(=O)[C@@H]1CC(=O)N[C@@H](CCCNC(=N)N)C(=O)NCC(=O)N[C@@H](CC(=O)O)C(=O)N[C@H](Cc2ccc(O)cc2)C(=O)N1)C(N)=O` [technetium-99m labelled]: “tumour to tissue ratio” 6.53 (C57 mouse, female, B16/F1 melanoma; intravenous, 0.037 MBq, 2 h; relative to: tumour over liver).
`CC1(C)CNC(=O)c2ccccc21` gave an oral bioavailability of 62 ± 10% (Sprague-Dawley rat, male; 5 mg/kg oral, 1 mg/kg intravenous).
For `CC(C)(Sc1cc[n+]([O-])cc1-c1ccc(C#N)c2ccccc12)C(=O)OC1OC(C(=O)O)C(O)C(O)C1O` (stereo not shown), the renal clearance was 117 mL/min (human, urine; oral, 15 mg, 72 h, moderate renal impairment).
For `CCCCCCCCCCCCCCCC(=O)OCC(COC(=O)CCCCCCCCCCCCCCC)OC(=O)CCCSSCCCC(=O)OC(C(=O)OC1CC2(O)C(OC(=O)c3ccccc3)C3C4(OC(C)=O)COC4CC(OC)C3(C)C(=O)C(OC)C(=C1C)C2(C)C)C(NC(=O)OC(C)(C)C)c1ccccc1` (stereo not shown), the cabazitaxel release was 55% (prodrug; PBS with 30% ethanol; 48 h, pH 7.4, 37 °C, together with: DTT 10 mM).
For `CCCC[C@@H]1NC(=O)[C@@H](NC(=O)[C@H](CCC(=O)O)NC(=O)CNC(=O)CN2CCN(CC(=O)O)CCN(CC(=O)O)CCN(CC(=O)O)CC2)CCCCNC(=O)C[C@@H](C(N)=O)NC(=O)[C@H](C(C)C)NC(=O)[C@@H]2CCCN2C(=O)[C@H](CCCNC(=N)N)NC(=O)CNC(=O)[C@H](Cc2c[nH]c3ccccc23)NC(=O)[C@H](CCCNC(=N)N)NC(=O)[C@@H](Cc2ccccc2)NC(=O)[C@H](Cc2c[nH]cn2)NC(=O)[C@H](CCC(=O)O)NC1=O` [gallium-67 labelled], “tumour to blood ratio” read 33.5 (C57 mice with B16/F1 melanoma; intravenous, 0.037 MBq/mouse, 24 h; relative to: tumour over blood).
For `NC12CNCCNCC(NCc3ccc(CNC(=O)CCCC(=O)NCc4ccc(-c5nncnn5)cc4)cc3)(CNCCNC1)CNCCNC2.[64Cu+2]`, “mean absorbed dose” read 0.0281 rad/mCi (OLINDA dosimetry; breasts; pretargeting, 120-h interval).
`O=C([O-])CN1CCN(CC(=O)[O-])CCN(CC(=O)NC[C@H]2CC[C@H](C(=O)N[C@H](Cc3cnc4ccccc4c3)C(=O)NCCCC[C@H](NC(=O)N[C@@H](CCC(=O)O)C(=O)O)C(=O)O)CC2)CCN(CC(=O)[O-])CC1.[64Cu+2]` has an absorbed dose of 0.00268 mGy/MBq (PET/CT dosimetry OLINDA/EXM; healthy volunteers, brain; up to 24 h post-injection).
`Cc1ccccc1-c1cc(N2CCNCC2)ncc1N(C)C(=O)C(C)(C)c1cc(C(F)(F)F)cc(C(F)(F)F)c1`: “time to terminal elimination phase” 72 h (human, plasma; dose not given).
For `N[C@H]1[C@H](O[C@H]2[C@H](O)[C@@H](N)[C@H](O[C@H]3[C@H](O)[C@@H](N)[C@H](O[C@H]4[C@H](O)[C@@H](N)C(O)O[C@@H]4CO)O[C@@H]3CO)O[C@@H]2CO)O[C@H](CO)[C@@H](O)[C@@H]1O` (stereo partly shown), capecitabine absorption read “inhibited” (SD rats; 250 mg/kg, together with: capecitabine).
`N=C(N)NCCC[C@@H]1NC(=O)[C@H](Cc2c[nH]c3ccccc23)NC(=O)[C@@H](CC2CCCCC2)NC(=O)[C@@H]2CCCN2C(=O)[C@@H](NC(=O)CCc2ccccc2)CCCNC1=O` — result for “main excretion period”: at most 6 h (C57BL/6J mice, urine; 1 mg/kg).
For `CC(C)(Sc1ccncc1-c1ccc(C#N)c2ccccc12)C(=O)OC1OC(C(=O)O)C(O)C(O)C1O` (stereo not shown), “renal clearance ratio (0-72 h)” read 9.78% (adult men, urine; oral, 15 mg verinurad, severe renal impairment; relative to: impaired over normal renal function).
With `[11CH3]c1ccc2nc(C3CCC3)n(-c3ccc4[nH]ncc4c3)c2n1` the absorbed dose was 5 µSv/MBq (extrapolated from mouse; human male, Lower large intestine wall).
For `O=C(Nc1nccs1)C(c1cc(F)ccc1O)N1Cc2ccccc2C1=O` (stereo not shown), the recovery was 89.5 ± 4.7% (mouse plasma; 6 ng/mL, 24 h, room temperature, short-term stability, low QC).
For `Cc1ccc(/N=N/c2c(O)ccc3ccccc23)c(C)c1`, “elimination rate constant” read 0.000106 s⁻¹ (Sprague-Dawley rats both sexes, whole blood; oral, 50 mg/kg).

Some of these lines once more:
For `CCCCCCCC(=O)OC[C@H](NC(=O)[C@H](CO)NC(=O)CN)C(=O)N[C@@H](Cc1ccccc1)C(=O)N[C@@H](CC(C)C)C(=O)N[C@@H](CO)C(=O)N1CCC[C@H]1C(=O)N[C@@H](CCC(=O)O)C(=O)N[C@@H](Cc1cnc[nH]1)C(=O)N[C@@H](CCC(N)=O)C(=O)N[C@@H](CCCNC(=N)N)C(=O)N[C@H](C(=O)N[C@@H](CCC(N)=O)C(=O)N[C@@H](CCC(N)=O)C(=O)N[C@@H](CCCNC(=N)N)C(=O)N[C@@H](CCCCN)C(=O)N[C@@H](CCC(=O)O)C(=O)N[C@@H](CO)C(=O)N[C@@H](CCCCN)C(=O)N[C@@H](CCCCN)C(=O)N1CCC[C@H]1C(=O)N1CCC[C@H]1C(=O)N[C@@H](C)C(=O)N[C@@H](CCCCN)C(=O)N[C@@H](CC(C)C)C(=O)N[C@@H](CCC(N)=O)C(=O)N1CCC[C@H]1C(=O)N[C@@H](CCCNC(=N)N)C(=O)O)C(C)C`, “blood pressure sBP” read 106 ± 20.5 mm Hg (beat-to-beat plethysmography; human chronic HFrEF patients; intravenous infusion, 0.1 µg/kg/min, 30 min after infusion end).
For `C=CC(=O)Nc1cc(Nc2nccc(-c3c[nH]c4ccccc34)n2)c(OC)cc1N(C)CCN(C)C`, “steady-state trough concentration” read 20 ng/mL (UHPLC-MS/MS; human, plasma; oral, 80 mg daily).
For `C[C@H](NC(=O)COC(=O)[C@H](C)NC(=O)CO)C(=O)O`, the depolymerization half-life was 1.2 min (water; pH 8, 37 °C).
